{"data": "Results gathered from unrelated publications", "note": "Protocols differ between the studies behind these lines. ± marks the error that the study gave.", "UniProt P06276, sequence (whole entry, looked up)": "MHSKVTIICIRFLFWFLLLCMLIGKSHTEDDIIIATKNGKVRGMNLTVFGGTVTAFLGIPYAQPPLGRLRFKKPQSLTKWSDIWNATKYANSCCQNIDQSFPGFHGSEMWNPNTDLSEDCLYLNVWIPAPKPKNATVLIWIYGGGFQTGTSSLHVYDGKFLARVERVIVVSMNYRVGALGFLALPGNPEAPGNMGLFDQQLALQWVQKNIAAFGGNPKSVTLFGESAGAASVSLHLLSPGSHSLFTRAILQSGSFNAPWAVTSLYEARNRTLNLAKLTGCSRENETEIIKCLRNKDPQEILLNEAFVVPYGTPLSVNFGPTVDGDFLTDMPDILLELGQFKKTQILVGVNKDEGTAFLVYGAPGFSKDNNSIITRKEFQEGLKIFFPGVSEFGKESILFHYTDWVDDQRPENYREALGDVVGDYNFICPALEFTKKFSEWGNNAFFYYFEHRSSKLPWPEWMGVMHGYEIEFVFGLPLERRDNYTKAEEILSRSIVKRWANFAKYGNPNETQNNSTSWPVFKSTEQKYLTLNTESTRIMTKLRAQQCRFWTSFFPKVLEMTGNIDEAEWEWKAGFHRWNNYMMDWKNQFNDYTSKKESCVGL", "UniProt P63138, sequence (whole entry, looked up)": "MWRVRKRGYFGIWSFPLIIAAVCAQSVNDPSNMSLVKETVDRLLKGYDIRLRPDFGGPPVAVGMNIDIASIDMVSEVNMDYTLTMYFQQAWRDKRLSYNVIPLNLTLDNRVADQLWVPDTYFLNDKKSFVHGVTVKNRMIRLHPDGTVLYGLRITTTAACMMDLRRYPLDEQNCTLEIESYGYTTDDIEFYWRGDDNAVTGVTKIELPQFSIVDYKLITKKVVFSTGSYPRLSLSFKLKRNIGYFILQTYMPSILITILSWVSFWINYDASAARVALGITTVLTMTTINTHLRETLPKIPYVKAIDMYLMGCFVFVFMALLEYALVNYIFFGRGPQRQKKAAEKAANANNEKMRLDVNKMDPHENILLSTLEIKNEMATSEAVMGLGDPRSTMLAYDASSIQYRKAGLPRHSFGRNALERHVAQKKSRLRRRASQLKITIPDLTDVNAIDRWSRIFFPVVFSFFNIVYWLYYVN", "UniProt P0A3M6, sequence (whole entry, looked up)": "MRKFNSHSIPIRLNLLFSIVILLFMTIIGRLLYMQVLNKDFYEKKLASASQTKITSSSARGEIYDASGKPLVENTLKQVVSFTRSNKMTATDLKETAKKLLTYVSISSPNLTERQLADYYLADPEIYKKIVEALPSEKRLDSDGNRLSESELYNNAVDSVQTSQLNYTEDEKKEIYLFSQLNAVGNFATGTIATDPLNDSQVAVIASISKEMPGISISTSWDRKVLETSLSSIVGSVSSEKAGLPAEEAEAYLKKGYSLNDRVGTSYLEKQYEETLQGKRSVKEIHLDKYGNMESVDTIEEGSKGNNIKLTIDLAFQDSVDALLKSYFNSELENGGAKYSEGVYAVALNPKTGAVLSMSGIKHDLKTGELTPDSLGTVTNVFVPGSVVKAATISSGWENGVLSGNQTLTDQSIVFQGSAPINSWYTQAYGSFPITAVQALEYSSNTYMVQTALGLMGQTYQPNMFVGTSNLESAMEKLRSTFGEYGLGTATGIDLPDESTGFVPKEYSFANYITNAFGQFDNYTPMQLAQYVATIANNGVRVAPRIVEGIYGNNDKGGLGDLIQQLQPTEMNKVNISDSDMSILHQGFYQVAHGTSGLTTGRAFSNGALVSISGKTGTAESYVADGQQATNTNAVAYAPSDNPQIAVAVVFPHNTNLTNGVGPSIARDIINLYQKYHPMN", "UniProt P49146, sequence (whole entry, looked up)": "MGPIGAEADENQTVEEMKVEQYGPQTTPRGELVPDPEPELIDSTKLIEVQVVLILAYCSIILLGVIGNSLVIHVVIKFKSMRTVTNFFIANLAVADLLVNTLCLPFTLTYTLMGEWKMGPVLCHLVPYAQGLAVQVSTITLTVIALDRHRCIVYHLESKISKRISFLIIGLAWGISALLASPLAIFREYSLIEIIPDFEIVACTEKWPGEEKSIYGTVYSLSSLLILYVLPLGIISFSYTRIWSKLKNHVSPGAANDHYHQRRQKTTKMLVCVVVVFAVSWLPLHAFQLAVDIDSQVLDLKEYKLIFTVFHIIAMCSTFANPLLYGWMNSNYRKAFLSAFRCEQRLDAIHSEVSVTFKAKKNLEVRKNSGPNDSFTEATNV", "UniProt P35367, sequence (whole entry, looked up)": "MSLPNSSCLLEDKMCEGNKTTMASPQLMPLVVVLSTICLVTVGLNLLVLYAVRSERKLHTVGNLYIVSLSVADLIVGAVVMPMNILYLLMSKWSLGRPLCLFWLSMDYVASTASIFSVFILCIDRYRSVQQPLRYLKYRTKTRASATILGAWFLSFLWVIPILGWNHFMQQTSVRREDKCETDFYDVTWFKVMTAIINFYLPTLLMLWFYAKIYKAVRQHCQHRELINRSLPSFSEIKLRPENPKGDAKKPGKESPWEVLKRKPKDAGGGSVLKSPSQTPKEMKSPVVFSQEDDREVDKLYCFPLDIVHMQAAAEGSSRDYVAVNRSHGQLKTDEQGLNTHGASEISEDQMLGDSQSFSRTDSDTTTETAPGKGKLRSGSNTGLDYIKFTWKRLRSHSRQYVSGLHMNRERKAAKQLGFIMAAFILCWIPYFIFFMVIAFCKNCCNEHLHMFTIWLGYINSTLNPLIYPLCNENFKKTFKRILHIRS", "UniProt Q05941, sequence (whole entry, looked up)": "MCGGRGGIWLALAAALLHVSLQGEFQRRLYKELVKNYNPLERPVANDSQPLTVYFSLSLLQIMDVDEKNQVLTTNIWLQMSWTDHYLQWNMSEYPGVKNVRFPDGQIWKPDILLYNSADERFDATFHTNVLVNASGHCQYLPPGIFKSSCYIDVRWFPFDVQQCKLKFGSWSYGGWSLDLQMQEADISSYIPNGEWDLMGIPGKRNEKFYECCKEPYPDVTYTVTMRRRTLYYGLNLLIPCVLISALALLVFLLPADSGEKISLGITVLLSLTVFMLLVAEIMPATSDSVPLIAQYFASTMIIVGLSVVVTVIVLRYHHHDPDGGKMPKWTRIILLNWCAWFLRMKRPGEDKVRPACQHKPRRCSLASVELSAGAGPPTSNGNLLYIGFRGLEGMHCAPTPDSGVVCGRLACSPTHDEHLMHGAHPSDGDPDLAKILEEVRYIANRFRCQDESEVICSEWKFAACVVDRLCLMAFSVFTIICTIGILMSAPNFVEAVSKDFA", "UniProt P35462, sequence (whole entry, looked up)": "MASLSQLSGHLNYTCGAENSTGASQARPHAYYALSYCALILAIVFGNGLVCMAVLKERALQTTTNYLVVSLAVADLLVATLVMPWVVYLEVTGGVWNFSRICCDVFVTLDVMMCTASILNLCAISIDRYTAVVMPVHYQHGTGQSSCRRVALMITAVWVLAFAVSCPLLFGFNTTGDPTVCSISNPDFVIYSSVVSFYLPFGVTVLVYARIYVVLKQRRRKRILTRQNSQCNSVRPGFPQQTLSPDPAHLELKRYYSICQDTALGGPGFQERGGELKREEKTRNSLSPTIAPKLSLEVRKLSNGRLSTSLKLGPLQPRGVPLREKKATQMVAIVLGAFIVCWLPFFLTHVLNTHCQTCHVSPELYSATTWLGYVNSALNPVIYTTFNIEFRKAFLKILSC", "UniProt Q704Y3, sequence (whole entry, unmodified, looked up)": "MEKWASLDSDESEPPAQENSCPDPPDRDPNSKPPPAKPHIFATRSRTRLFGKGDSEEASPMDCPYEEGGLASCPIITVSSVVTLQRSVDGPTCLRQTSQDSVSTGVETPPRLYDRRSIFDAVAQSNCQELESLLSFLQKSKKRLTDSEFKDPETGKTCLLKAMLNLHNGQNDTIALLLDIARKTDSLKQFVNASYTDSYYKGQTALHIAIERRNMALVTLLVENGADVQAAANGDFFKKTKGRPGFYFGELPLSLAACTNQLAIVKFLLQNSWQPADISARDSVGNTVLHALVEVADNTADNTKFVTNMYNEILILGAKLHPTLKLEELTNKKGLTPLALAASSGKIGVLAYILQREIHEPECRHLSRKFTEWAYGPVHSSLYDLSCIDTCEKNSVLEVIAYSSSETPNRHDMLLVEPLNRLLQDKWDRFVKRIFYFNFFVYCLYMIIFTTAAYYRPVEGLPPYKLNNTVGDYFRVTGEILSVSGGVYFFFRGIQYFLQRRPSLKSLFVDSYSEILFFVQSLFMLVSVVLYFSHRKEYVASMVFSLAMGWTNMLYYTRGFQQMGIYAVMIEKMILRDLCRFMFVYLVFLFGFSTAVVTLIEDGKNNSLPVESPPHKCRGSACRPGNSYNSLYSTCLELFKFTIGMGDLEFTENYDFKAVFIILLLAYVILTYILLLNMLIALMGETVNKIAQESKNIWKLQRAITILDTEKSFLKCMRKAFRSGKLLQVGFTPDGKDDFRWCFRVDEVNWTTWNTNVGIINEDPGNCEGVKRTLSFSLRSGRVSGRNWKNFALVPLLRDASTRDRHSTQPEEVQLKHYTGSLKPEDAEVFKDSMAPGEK", "UniProt P46734, sequence (whole entry, looked up)": "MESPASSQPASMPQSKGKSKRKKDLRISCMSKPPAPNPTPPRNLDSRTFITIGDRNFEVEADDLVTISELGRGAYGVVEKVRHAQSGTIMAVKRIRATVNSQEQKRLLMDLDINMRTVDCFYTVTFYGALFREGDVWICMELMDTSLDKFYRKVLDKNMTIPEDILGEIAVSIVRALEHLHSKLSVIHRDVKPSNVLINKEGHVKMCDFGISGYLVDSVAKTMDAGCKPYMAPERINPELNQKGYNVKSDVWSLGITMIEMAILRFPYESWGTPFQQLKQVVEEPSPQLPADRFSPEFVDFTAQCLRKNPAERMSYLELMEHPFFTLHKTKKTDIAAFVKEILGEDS"}
{"SMILES": "COC(=O)[C@H]1[C@H]2C[C@@H]3c4[nH]c5cc(OC)ccc5c4CCN3C[C@H]2C[C@@H](OC(=O)c2cc(OC)c(OC)c(OC)c2)[C@@H]1OC", "tested on": "Plasmodium falciparum", "test system": "3D7", "quantity": "IC50", "value": "2000 nM"}
{"SMILES": "Oc1ccc(/C=C/c2cc(O)cc(O)c2)cc1", "tested on": "O-methyltransferase (Sorghum bicolor, UniProt A0A1B6PFV1, W279A)", "assay": "isothermal titration calorimetry", "setting": "apo protein", "quantity": "∆H", "value": "-10.2 ± 0.406 kcal/mol"}
{"SMILES": "CN1CCN(c2cc(-c3ccncc3)c(-c3ccc4ccccc4c3)nn2)CC1", "tested on": "HRH1 (Homo sapiens, UniProt P35367)", "assay": "agonist, FLIPR", "setting": "12.5 µM", "quantity": "activation", "value": "-0.1%"}
{"SMILES": "CCN(CC)CCCC[C@H](NC(=O)[C@H](CC(C)C)NC(=O)[C@H](C)NC(=O)[C@H](Cc1ccccc1)NC(=O)c1ccc(C(C)(C)C)cc1)C(=O)N[C@@H](CO)C(=O)OC", "tested on": "NPY2R (Homo sapiens, UniProt P49146)", "assay": "radioligand binding", "setting": "10 µM", "quantity": "specific binding", "value": "90.1%"}
{"SMILES": "CC1=C(C)C(=O)c2ccccc2C1=O", "tested on": "Reaction center protein M chain, QA site (pufM, Cereibacter sphaeroides, UniProt P0C0Y9)", "assay": "charge recombination", "test system": "Rhodobacter sphaeroides, LDAO detergent solution", "setting": "pH 7.8, 298 K, quinone reconstituted in QA site", "quantity": "P+QA− recombination rate", "value": "9.5 s⁻¹"}
{"SMILES": "CC1(C)C(C=C(Cl)Cl)C1C(=O)OCc1cccc(Oc2ccccc2)c1 (stereo not shown)", "tested on": "uncharacterized protein (Anopheles coluzzii, UniProt A0A6E8VQK1)", "assay": "enzyme activity, inhibitor", "test system": "Sf9 cell homogenate", "setting": "0.2326 µM, 0.1667 h, together with: α-naphthyl acetate substrate", "how to read": "relative to: no inhibitor", "quantity": "remaining activity", "value": "100%"}
{"SMILES": "CCCCC/C=C\\C/C=C\\C/C=C\\C/C=C\\CCCC(=O)NCCO", "tested on": "Trpv1 (Mus musculus, UniProt Q704Y3, T551S)", "assay": "ion current, agonist, whole-cell patch clamp", "setting": "T551S", "how to read": "relative to: 3 mM 2-APB", "quantity": "maximal open probability", "value": "0.83 ± 0.09"}
{"SMILES": "O=C(Nc1cnccc1Cl)N1CCN(Cc2ccc3c(c2)OC(F)(F)O3)CC1", "tested on": "STK17A (Homo sapiens, UniProt Q9UEE5)", "assay": "kinase activity, inhibitor", "setting": "10 µM, human", "quantity": "inhibition", "value": "-8%"}
{"SMILES": "CC[N+](CC)(CC)CCOc1ccc(/C=C/c2ccccc2)cc1", "tested on": "Plasmodium falciparum", "test system": "3D7", "quantity": "IC50", "value": "794 nM"}
{"SMILES": "CCCC(C(=O)O)c1c(C)nc2ccc(Cl)cc2c1-c1ccccc1 (stereo not shown)", "tested on": "Gag-Pol polyprotein, integrase (gag-pol, Human immunodeficiency virus 1, UniProt P12497)", "assay": "BiFC flow cytometry", "test system": "HEK293T", "how to read": "relative to: DMSO", "quantity": "minimal concentration increasing Venus ratio", "value": "≥ 5 µM"}
{"SMILES": "CC(=O)c1cnc2ccc(-c3cc(Cl)c(O)c(Cl)c3)nc2c1N[C@H]1CC[C@H](CN(C)C)CC1", "tested on": "Probable receptor-like protein kinase At5g59700 (Arabidopsis thaliana, UniProt Q9FN92)", "assay": "binding, SPR", "setting": "concentration not given", "how to read": "relative to: FER", "quantity": "fold change of KD", "value": 48.5}
{"SMILES": "O=C(c1ccc(Cl)cc1)N1CCN2C(=O)N(OC(=O)N3CCOc4ccccc43)C(=O)C2C1 (stereo not shown)", "tested on": "Kallikrein-6 (Homo sapiens, UniProt Q92876)", "assay": "enzyme activity, inhibitor, MS-based ABPP", "test system": "SW-620 conditioned medium", "setting": "10 µM, 1 h, 37 °C", "how to read": "relative to: compound over DMSO, lower = stronger inhibition", "quantity": "median ratio", "value": 1.09}
{"SMILES": "Nc1ncc(-c2nc(N3CCOCC3)nc(N3CCOCC3)n2)c(C(F)F)n1", "tested on": "STK38L (Homo sapiens, UniProt Q9Y2H1)", "assay": "KINOMEscan", "setting": "10 µM", "quantity": "remaining binding", "value": "72%"}
{"SMILES": "NCCc1c[nH]c2ccc(O)cc12", "tested on": "AANAT2 cattle", "assay": "substrate, DTNB colorimetric", "setting": "together with: acetyl-CoA", "quantity": "Km", "value": "190 ± 80 µM"}
{"SMILES": "NCc1cc(=O)[nH]o1", "tested on": "GABA-A receptor; alpha-1/beta-2/gamma-2 (Rattus norvegicus, UniProt P18508+P62813+P63138)", "assay": "membrane potential, agonist, QP-DHM fluorescence", "test system": "HEK293 expressing GABAA", "setting": "10 µM", "how to read": "relative to: 10 µM GABA, direction not given", "quantity": "agonist score", "value": 1.02}
{"SMILES": "COc1cc(N)c(Cl)cc1C(=O)NC1CN2CCC1CC2 (stereo not shown)", "tested on": "Probable G-protein coupled receptor 141 (GPR141, Homo sapiens, UniProt Q7Z602)", "assay": "β-arrestin recruitment, TANGO luminescence, measured: GPR141", "setting": "concentration not given", "how to read": "relative to: basal luminescence", "quantity": "log2 fold change", "value": 0.075}
{"SMILES": "COc1cc(/C=C/C(=O)NC2CCN(Cc3ccccc3)CC2)ccc1OC(=O)N1CCCC1", "tested on": "Cholinesterase (BCHE, Equus caballus, UniProt P81908)", "assay": "Ellman", "test system": "equine serum BuChE", "how to read": "relative to: AChE IC50 over BuChE IC50", "quantity": "selectivity ratio", "value": 0.9}
{"SMILES": "O=C(O)Cc1c[nH]cn1", "tested on": "SLC6A6 (Homo sapiens, UniProt P31641, Y138A)", "assay": "binding, microscale thermophoresis", "setting": "37.6 nM, fitted curve", "how to read": "higher = more binding", "quantity": "fraction bound", "value": 0.000218}
{"SMILES": "C[C@H]1CN(c2n[nH]c3nc(N[C@H]4CC[C@H](NS(=O)(=O)CCC(F)(F)F)CC4)ncc23)CCO1", "tested on": "DDR1 (Homo sapiens, UniProt Q08345)", "assay": "inhibitor, Kinobeads competition profiling", "setting": "0.16 µM", "how to read": "relative to: vehicle", "quantity": "relative abundance", "value": 1.08}
{"SMILES": "CN(C)CCOC(C)(c1ccccc1)c1ccc(Cl)cc1 (stereo not shown)", "tested on": "Cholinesterase (BCHE, Homo sapiens, UniProt P06276)", "setting": "concentration not given, Triton", "quantity": "efficacy", "value": "-102 ± 2.41%"}
{"SMILES": "O=C1[O][Pt]2([NH][C@@H]3CCCC[C@H]3[NH]2)[O]C1=O", "tested on": "Chrna7 (Rattus norvegicus, UniProt Q05941)", "assay": "ion current, antagonist", "setting": "together with: nicotine 25 µM", "quantity": "Hill coefficient", "value": "1.8 ± 0.2"}
{"SMILES": "COc1ccc(N2C(=O)N(c3c(C)cccc3Cl)Cc3cnc(Nc4ccc(C5CCN(C)CC5)cc4OC)nc32)nc1", "tested on": "MAP2K3 (Homo sapiens, UniProt P46734)", "assay": "kinase activity, inhibitor", "setting": "0.5 µM, MEK3", "quantity": "inhibition", "value": "-16%"}
{"SMILES": "[2H]c1c([2H])c([C@]2([2H])CCCN2C(=O)C(C)(C)Oc2ccc3cn[nH]c3c2)c([2H])c([2H])c1C([2H])([2H])[2H]", "tested on": "PNCK (Homo sapiens, UniProt Q6P2M8)", "assay": "KINOMEscan", "setting": "1 µM", "how to read": "relative to: DMSO control", "quantity": "remaining binding", "value": "100%"}
{"SMILES": "CN(C(=O)n1cnc(-c2ccc[n+]([O-])c2)c1)C1CCCCC1", "tested on": "FGFR1 (Homo sapiens, UniProt P11362)", "assay": "kinase activity, inhibitor", "setting": "50 µM, human, together with: poly(Glu:Tyr) substrate", "quantity": "inhibition", "value": "-2%"}
{"SMILES": "CN(C)C(=O)COC(=O)Cc1ccc(OC(=O)c2ccc(NC(=N)N)cc2)cc1", "tested on": "TMPRSS2 (Homo sapiens, UniProt O15393)", "assay": "enzyme activity, inhibitor", "quantity": "Hill slope", "value": -1.27}
{"SMILES": "O=C(Nc1cccnn1)N1CCC(=Cc2cccc(Oc3ccc(C(F)(F)F)cn3)c2)CC1", "tested on": "DRD3 (Homo sapiens, UniProt P35462)", "assay": "radioligand binding", "setting": "50 µM, together with: [3H]spiperone", "quantity": "inhibition of binding", "value": "35%"}
{"SMILES": "O=C(CCCN1CCC2(CC1)C(=O)NCN2c1ccccc1)c1ccc(F)cc1", "tested on": "Cholinesterase (BCHE, Homo sapiens, UniProt P06276)", "setting": "concentration not given, Triton", "quantity": "efficacy", "value": "-74.2 ± 2.13%"}
{"SMILES": "CCN1CCN(C(=O)N[C@@H](C(=O)N[C@@H]2C(=O)N3[C@@H]2SC(C)(C)[C@@H]3C(=O)O)c2ccccc2)C(=O)C1=O", "tested on": "Penicillin-binding protein 2B (Streptococcus pneumoniae, UniProt P0A3M6)", "assay": "inhibitor", "quantity": "kinact/KI", "value": "15000 ± 810 M⁻¹ s⁻¹"}
{"note": "Excerpt of the above:"}
{"SMILES": "COC(=O)[C@H]1[C@H]2C[C@@H]3c4[nH]c5cc(OC)ccc5c4CCN3C[C@H]2C[C@@H](OC(=O)c2cc(OC)c(OC)c(OC)c2)[C@@H]1OC", "tested on": "Plasmodium falciparum", "test system": "3D7", "quantity": "IC50", "value": "2000 nM"}
{"SMILES": "Oc1ccc(/C=C/c2cc(O)cc(O)c2)cc1", "tested on": "O-methyltransferase (Sorghum bicolor, UniProt A0A1B6PFV1, W279A)", "assay": "isothermal titration calorimetry", "setting": "apo protein", "quantity": "∆H", "value": "-10.2 ± 0.406 kcal/mol"}
{"SMILES": "CN1CCN(c2cc(-c3ccncc3)c(-c3ccc4ccccc4c3)nn2)CC1", "tested on": "HRH1 (Homo sapiens, UniProt P35367)", "assay": "agonist, FLIPR", "setting": "12.5 µM", "quantity": "activation", "value": "-0.1%"}
{"SMILES": "CCN(CC)CCCC[C@H](NC(=O)[C@H](CC(C)C)NC(=O)[C@H](C)NC(=O)[C@H](Cc1ccccc1)NC(=O)c1ccc(C(C)(C)C)cc1)C(=O)N[C@@H](CO)C(=O)OC", "tested on": "NPY2R (Homo sapiens, UniProt P49146)", "assay": "radioligand binding", "setting": "10 µM", "quantity": "specific binding", "value": "90.1%"}
{"SMILES": "CC1=C(C)C(=O)c2ccccc2C1=O", "tested on": "Reaction center protein M chain, QA site (pufM, Cereibacter sphaeroides, UniProt P0C0Y9)", "assay": "charge recombination", "test system": "Rhodobacter sphaeroides, LDAO detergent solution", "setting": "pH 7.8, 298 K, quinone reconstituted in QA site", "quantity": "P+QA− recombination rate", "value": "9.5 s⁻¹"}
